Measurements of several laboratories.
Compare with care: the assays were run in different laboratories. Converted amounts (≈) assume the structure as drawn.

Compound	test system	setting	quantity	value
OCC1OC(n2cnc3c(NCc4ccc(Br)s4)ncnc32)C(O)C1O (centres unmarked)	simulated gastric fluid	pH 1.2, acidic	solubility	7600 µg/mL
CN(C)C(=O)c1cccc(N2Cc3cn(Cc4ccc(F)cc4)nc3C2)c1	water		solubility	> 100 µM
COc1cccc2c(NCc3ccccc3)nc(Nc3cccc(F)c3)nc12	aqueous buffer	pH 6.2	solubility	< 0.01 µg/mL
CC[C@H](C)[C@@H]1NC(=O)[C@H](Cc2ccc(O)cc2)NC(=O)CSC[C@@H](C(N)=O)NC(=O)[C@H](CC(N)=O)NC(=O)[C@H](Cc2c[nH]cn2)NC(=O)[C@H](Cc2ccc(O)cc2)NC(=O)[C@H](CC(=O)O)NC(=O)[C@H](Cc2ccc(F)c(F)c2)NC(=O)[C@H](CC(C)C)NC(=O)[C@H](CCCNC(=N)N)NC1=O	PBS	pH 7.4	kinetic solubility	136 µM (≈ 193 µg/mL)
CC1(C)CN(C(=O)Cn2c(=O)c(C(=O)NCc3ccc(Cl)cc3)cc3cccnc32)C1	aqueous buffer	24 h, pH 7.4, 37 °C	thermodynamic solubility	< 1.56 µM
COc1cccc2c(NCc3ccccc3)nc(Nc3cccc(Cl)c3)nc12	aqueous buffer	pH 6.2	solubility	0.05 µg/mL
Cc1nc(-c2ccncc2)sc1C(=O)NC(C(=O)Nc1cccc(C(N)=O)c1)c1ccc(OCc2ccccc2)cc1 (centres unmarked)	PBS	pH 7.4	thermodynamic solubility	< 0.34 µg/mL
CN1CCCN(c2cnc3c(cc(C(=O)NCc4ccc(Cl)cc4)c(=O)n3CC(=O)N3CC(C)(F)C3)n2)C1=O	aqueous buffer	24 h, pH 7.4, 37 °C	thermodynamic solubility	< 1.56 µM
